Published values pooled from the literature.
Each line is one published result; not all experiments were run side by side. Numbers after ± are the reported error.

Structure (SMILES)	system	setting	measurement	result
CCOc1ccccc1-n1c(CN2CCNCC2)nc2ccccc2c1=O	C57BL/6 mouse, male, plasma	intravenous, 1 mg/kg	Tmax	0.08 h
CCCCCCCCCCCCCCCC(=O)N[C@@H](CCC(=O)NCCOCCOCCC(=O)NCCOCCOCCC(=O)NCCCC[C@H](NC(=O)[C@H](CC(=O)O)NC(=O)[C@H](CC(C)C)NC(=O)[C@H](Cc1ccc(O)cc1)NC(=O)[C@H](CCCCN)NC(=O)[C@H](CO)NC(=O)[C@H](Cc1ccc(O)cc1)NC(=O)[C@H](CC(=O)O)NC(=O)[C@H](CO)NC(=O)[C@@H](NC(=O)[C@H](Cc1ccccc1)NC(=O)[C@@H](NC(=O)CNC(=O)[C@H](CCC(N)=O)NC(=O)[C@@H](CO)NC(=O)[C@@H](N)Cc1c[nH]cn1)[C@@H](C)O)[C@@H](C)O)C(=O)N[C@@H](CCCNC(=N)N)C(=O)N[C@@H](CCCNC(=N)N)C(=O)N[C@@H](C)C(=O)N[C@@H](CCC(N)=O)C(=O)N[C@@H](CC(=O)O)C(=O)N[C@@H](Cc1ccccc1)C(=O)N[C@H](C(=O)N[C@@H](CCC(N)=O)C(=O)N[C@@H](Cc1c[nH]c2ccccc12)C(=O)N[C@@H](CC(C)C)C(=O)N[C@@H](CC(C)C)C(=O)N[C@@H](CC(N)=O)C(=O)N[C@H](C(=O)NCC(=O)NCC(=O)N1CCC[C@H]1C(=O)N[C@@H](CO)C(=O)N[C@@H](CO)C(=O)NCC(=O)N[C@@H](C)C(=O)N1CCC[C@H]1C(=O)N1CCC[C@H]1C(=O)N1CCC[C@H]1C(=O)N[C@@H](CO)C(N)=O)[C@@H](C)O)C(C)C)C(=O)O	male rhesus monkey, plasma	subcutaneous, 300 µg/kg, day 1, median	Tmax	2 h
CC1(C)C(=O)N(c2ccc(C#N)c(C(F)(F)F)c2)C(=S)N1c1ccc(C(=O)O)c(F)c1	human, male, plasma	oral, 80 mg, single dose, fasting	Tmax	96 ± 39.6 h
CCCCCCCCCCCCCC(=O)N[C@H](CCN)C(=O)N[C@@H]1C(=O)N[C@@H](CCN)C(=O)N[C@@H](CC(C)C)C(=O)N[C@@H](CCN)C(=O)N[C@H](Cc2ccccc2)C(=O)N[C@@H](CC(C)C)C(=O)N[C@@H](CCN)C(=O)N[C@H](CCN)C(=O)N[C@@H](C(C)C)C(=O)N[C@@H](CC(=O)O)C(=O)O[C@@H]1C	rat, plasma	subcutaneous, 10 mg/kg	Tmax	8 h
CC1(C)C(=O)N(c2ccc(C#N)c(C(F)(F)F)c2)C(=S)N1c1ccc(C(N)=O)c(F)c1	healthy male humans, plasma	oral, 160 mg, fasting, soft capsules	Tmax	228 ± 106 h
CC(C)N1CCCCC1C(=O)NC(Cc1ccc(-c2ccccc2)cc1)B(O)O (stereo not drawn)	rat, plasma	oral, 1 mg/kg	Tmax	0.5 h
C[C@H]1C(=O)O[C@@H]2O[C@@]3(C)CC[C@@H]4[C@@]2(OO3)[C@H]1CC[C@]4(C)O	human	dose not given, day 1	Tmax	1.7 ± 0.8 h
NC1CCN(C(=O)Oc2ccc(C3CCCC4(C3)OOC3(O4)C4CC5CC(C4)CC3C5)cc2)CC1 (racemic)	male Sprague-Dawley rat, plasma	oral, 50 mg/kg	Tmax	8 h
O=C1NC2(CC2)COc2ncc(F)cc2[C@H]2COCCN2c2ccn3ncc1c3n2	Sprague-Dawley rat, male, heart	oral, 10 mg/kg/day, 4 weeks, end of treatment	organ-to-body weight ratio	0.398 ± 0.065%

Some of these lines once more:
Structure (SMILES)	system	setting	measurement	result
O=C1NC2(CC2)COc2ncc(F)cc2[C@H]2COCCN2c2ccn3ncc1c3n2	Sprague-Dawley rat, male, heart	oral, 10 mg/kg/day, 4 weeks, end of treatment	organ-to-body weight ratio	0.398 ± 0.065%
